Measurements collected from several papers.
Protocols differ between the studies behind these lines. Numbers after ± are the reported error.
OPRK1: Kappa-type opioid receptor (OPRK1, Homo sapiens, UniProt P41145)
rep papain-like protease: Replicase polyprotein 1ab, papain-like protease (rep, Severe acute respiratory syndrome coronavirus 2, UniProt P0DTD1)
rep nsp12 with nsp14/nsp10: Replicase polyprotein 1ab, nsp12 with nsp14/nsp10 (rep, Severe acute respiratory syndrome coronavirus 2, UniProt P0DTD1)
OPG122: mRNA-decapping protein OPG122 (OPG122, Vaccinia virus, UniProt P04312)
TST: Thiosulfate sulfurtransferase (TST, Homo sapiens, UniProt Q16762)

Structure (SMILES) | target or system | test | system | conditions | quantity | value
CC(C)C[C@H](NC(=O)[C@H](CO)NC(=O)[C@H](CCCCN)NC(=O)[C@H](CC(C)C)NC(=O)[C@H](C)NC(=O)[C@H](CCCCN)NC(=O)[C@H](CCC(=O)O)NC(=O)CNC(=O)[C@H](CC(C)C)NC(=O)[C@H](CC(N)=O)NC(=O)[C@@H]1CCCN1C(=O)[C@H](CC(C)C)NC(=O)[C@H](Cc1ccccc1)NC(=O)CNC(=O)[C@H](NC(=O)[C@@H](N)Cc1ccc(O)cc1)[C@H](C)O)C(N)=O | OPRK1 | ligand displacement, radioligand |  | pH 7.5, cell membranes | Ki | 0.02 µM
CCCCCCCCCCCCCCCC(=O)N[C@@H](CCC(=O)NCCCC[C@H](NC(=O)[C@H](CC(=O)O)NC(=O)[C@H](CO)NC(=O)[C@@H](NC(=O)[C@H](Cc1ccccc1)NC(=O)[C@@H](NC(=O)CNC(=O)[C@H](CCC(N)=O)NC(=O)[C@H](C)NC(=O)[C@@H](Cc1ccc(O)cc1)NC(C)=O)[C@@H](C)O)[C@@H](C)O)C(=O)N[C@@H](CO)C(=O)N[C@@H](CCCCN)C(=O)N[C@@H](Cc1ccc(O)cc1)C(=O)N[C@@H](CC(C)C)C(=O)N[C@@H](CC(=O)O)C(=O)N[C@@H](CCC(=O)O)C(=O)N[C@@H](CCCNC(=N)N)C(=O)N[C@@H](C)C(=O)N[C@@H](C)C(=O)N[C@@H](CCC(N)=O)C(=O)N[C@@H](CC(=O)O)C(=O)N[C@@H](Cc1ccccc1)C(=O)N[C@H](C(=O)N[C@@H](CCC(N)=O)C(=O)N[C@@H](Cc1c[nH]c2ccccc12)C(=O)N[C@@H](CC(C)C)C(=O)N[C@@H](CC(C)C)C(=O)N[C@@H](CCC(=O)O)C(=O)NCC(=O)NCC(=O)N1CCC[C@H]1C(=O)N[C@@H](CO)C(=O)N[C@@H](CO)C(=O)NCC(=O)N[C@@H](C)C(=O)N1CCC[C@H]1C(=O)N1CCC[C@H]1C(=O)N1CCC[C@H]1C(=O)N[C@@H](CO)C(N)=O)C(C)C)C(=O)O |  | telemetry | conscious lean cynomolgus monkey | subcutaneous, 30 and 100 µg/kg, 5 to 20 h post-dose | sustained heart rate increase | ≤ 53 beats/min
CC(C)C[C@H](NC(=O)[C@H](CO[C@@H]1O[C@H](CO)[C@@H](O[C@@H]2O[C@H](CO)[C@H](O)[C@H](O)[C@H]2O)[C@H](O)[C@H]1O)NC(=O)[C@H](CCCCN)NC(=O)[C@H](CC(C)C)NC(=O)C(C)(C)NC(=O)[C@H](CCCCN)NC(=O)[C@H](CCC(=O)O)NC(=O)C(C)(C)NC(=O)[C@H](CC(C)C)NC(=O)[C@H](CC(N)=O)NC(=O)[C@@H]1CCCN1C(=O)[C@H](CC(C)C)NC(=O)[C@H](Cc1ccccc1)NC(=O)CNC(=O)[C@H](NC(=O)[C@@H](N)Cc1ccc(O)cc1)[C@H](C)O)C(N)=O | OPRK1 | ligand displacement, radioligand |  | pH 7.5, cell membranes | Ki | 0.017 µM
CC[C@@H](C)[C@@H](NC(=O)[C@@H](CCCCN)NC(=O)[C@@H](CCCCN)NC(=O)[C@@H](CC(C)C)NC(=O)[C@@H](Cc1c[nH]c2ccccc12)NC(=O)CN)C(=O)NCC(=O)N[C@H](CCCCN)C(=O)N[C@H](CCCCN)C(=O)N[C@@H](C(=O)N[C@H](CCC(=O)O)C(=O)N[C@H](CCCNC(=N)N)C(=O)N[C@@H](C(=O)NCC(=O)N[C@H](CCC(N)=O)C(=O)N[C@H](Cc1c[nH]cn1)C(=O)N[C@@H](C(=O)N[C@H](CCCNC(=N)N)C(=O)N[C@H](CC(=O)O)C(=O)N[C@H](C)C(=O)N[C@@H](C(=O)N[C@@H](C(=O)N[C@H](CCC(N)=O)C(=O)N[C@@H](C(=O)N[C@@H](C(=O)NCC(=O)N[C@@H](C(=O)N[C@H](C)C(=O)N[C@H](CCC(N)=O)C(=O)N[C@H](CCC(N)=O)C(=O)N[C@H](C)C(=O)N[C@H](C)C(=O)N[C@H](CC(N)=O)C(=O)N[C@@H](C(=O)N[C@H](C)C(=O)N[C@H](C)C(=O)N[C@@H](C(=O)N[C@H](CC(C)C)C(=O)N[C@H](CCCCN)C(N)=O)[C@H](C)O)C(C)C)C(C)C)[C@H](C)CC)[C@H](C)O)[C@H](C)CC)[C@H](C)O)[C@H](C)O)C(C)C)[C@H](C)CC |  |  | human erythrocytes |  | minimal haemolytic concentration | > 1020 mg/L
Cc1ccc(OCCN(C)C)cc1C(=O)N[C@H](C)c1cc(-c2cnn(C)c2)cc(-c2cnn(C(C)C)c2)c1 | rep papain-like protease | protease activity, inhibitor, FlipGFP | SARS-CoV-2 |  | EC50 | 0.8 ± 0.1 µM
CC(C)C[C@H](NC(=O)OCc1ccccc1)C(=O)N[C@H](C=O)C[C@@H]1CCNC1=O | Replicase polyprotein 1ab, main protease (Bat coronavirus HKU9, UniProt P0C6W5) | viral replication |  |  | EC50 | > 15 µM
COc1ccccc1CNC(=O)CSc1c[nH]c2ccccc12 | rep nsp12 with nsp14/nsp10 | RdRp reporter activity, inhibitor, Gaussia luciferase reporter | HEK293T | 24 h, added: nsp7, nsp8, nsp10, nsp14 | EC50 | 2.52 µM
Cc1cc(O)cc(C)c1C[C@H](N)C(=O)NCC(=O)NCC(=O)N[C@@H](Cc1ccccc1)C(=O)N[C@H](C(=O)NCC(=O)N[C@@H](C)C(=O)N[C@@H](CCCNC(=N)N)C(=O)N[C@@H](CCCCN)C(=O)N[C@@H](CO)C(=O)N[C@@H](C)C(=O)N[C@@H](CCCNC(=N)N)C(=O)N[C@@H](CCCCN)C(N)=O)[C@@H](C)O | Nociceptin receptor, with β-arrestin 2 (OPRL1, Homo sapiens, UniProt P41146) | β-arrestin 2 recruitment, agonist, BRET | HEK293 cells | 15 min, room temperature | EC50 | 0.00708 µM
O=C[C@H](C[C@@H]1CCNC1=O)NC(=O)[C@H](CC1CCCCC1)NC(=O)c1cc2ccccc2[nH]1 | Replicase polyprotein 1ab, main protease (rep, Human coronavirus NL63, UniProt P0C6X5) | viral replication |  |  | EC50 | > 20 µM
CC(C)C[C@@H]1NC(=O)[C@H](CCCNC(=N)N)NC(=O)[C@@H]2CCCN2C(=O)[C@@H]2CSSC[C@H](NC(=O)CNC(=O)[C@@H]3CCCN3C(=O)[C@H](CCCCN)NC(=O)[C@H](CC(=O)O)NC(=O)[C@@H](NC(=O)CN)C(C)C)C(=O)N[C@@H](CCCNC(=N)N)C(=O)N[C@@H](Cc3ccc(O)cc3)C(=O)N[C@@H](CC(C)C)C(=O)N[C@@H](Cc3ccccc3)C(=O)NCC(=O)NCC(=O)N[C@H]3CSSC[C@H](NC(=O)CNC1=O)C(=O)N[C@@H](CCCCN)C(=O)NCC(=O)N[C@@H](CCCCN)C(=O)NCC(=O)N[C@@H](Cc1c[nH]cn1)C(=O)N[C@@H](CC(=O)O)C(=O)N[C@@H](Cc1ccc(O)cc1)C(=O)N[C@H](C(=O)N[C@@H](C)C(=O)N[C@@H](Cc1c[nH]c4ccccc14)C(=O)N[C@@H](CC(=O)O)C(=O)NCC(=O)N[C@H](C(=O)N[C@@H](Cc1ccccc1)C(=O)N[C@@H](CO)C(=O)N[C@@H](CC(=O)O)C(=O)O)[C@@H](C)O)CSSC[C@H](NC(=O)[C@H](CC(=O)O)NC(=O)[C@H](CC(=O)O)NC(=O)[C@H](CC(=O)O)NC(=O)[C@H](CO)NC(=O)[C@H](CCCCN)NC3=O)C(=O)N2 | SCN10A (Homo sapiens, UniProt Q9Y5Y9) | sodium current, potentiator |  | holding potential -80 mV | EC50 | 1.1 ± 0.1 µM
C[n+]1cn(C2OC(COP(=O)(O)OP(=O)(O)OP(=O)(O)OCC3OC(n4cnc5c(=O)[nH]c(N)nc54)C(O)C3O)C(O)C2O)c2nc(N)[nH]c(=O)c21 (centres unmarked) | OPG122 | inhibitor |  |  | Ki | 0.28 µM
NC(=O)c1c(N)[nH]c(C(=O)c2ccccc2)c1-c1ccc(F)c(Oc2ccccc2)c1 | TST | enzyme activity, activator, cyanide to thiocyanate conversion |  |  | EC50 | 2.7 ± 6.1 µM
CSc1ncnc2c1ncn2C1OC(COP(=O)(O)OP(=O)(O)OP(=O)(O)O)C(O)C1O (centres unmarked) | OPG122 |  |  |  | Ki | > 0.8 µM
CCOC(=O)C=CC(CC1CCNC1=O)NC(=O)C(CC(C)C)NC(=O)C(NC(=O)OCc1ccccc1)C(C)OC(C)(C)C (centres unmarked) | Replicase polyprotein 1ab, main protease (rep, Severe acute respiratory syndrome-related coronavirus, UniProt P0C6X7) | viral replication |  |  | EC50 | 3.17 µM
Nc1ncnc2c1ncn2C1OC(COP(=O)(O)OP(=O)(O)OP(=O)(O)O)C(O)C1F (centres unmarked) | OPG122 |  |  |  | Ki | > 0.8 µM
O=C(NCc1ccccc1)C(N[C@@H]1CCSC1=O)C1CC1 (single isomer, unassigned) | TST | enzyme activity, activator, cyanide to thiocyanate conversion |  |  | EC50 | 28.5 ± 5.9 µM
CCCCCCCCCCCCCCCC(=O)N[C@@H](CCC(=O)NCCOCCOCCC(=O)NCCOCCOCCC(=O)NCCCC[C@H](NC(=O)[C@H](CC(=O)O)NC(=O)[C@H](CC(C)C)NC(=O)[C@H](Cc1ccc(O)cc1)NC(=O)[C@H](CCCCN)NC(=O)[C@H](CO)NC(=O)[C@H](Cc1ccc(O)cc1)NC(=O)[C@H](CC(=O)O)NC(=O)[C@H](CO)NC(=O)[C@@H](NC(=O)[C@H](Cc1ccccc1)NC(=O)[C@@H](NC(=O)CNC(=O)[C@H](CCC(N)=O)NC(=O)[C@@H](CO)NC(=O)[C@@H](N)Cc1c[nH]cn1)[C@@H](C)O)[C@@H](C)O)C(=O)N[C@@H](CCCNC(=N)N)C(=O)N[C@@H](CCCNC(=N)N)C(=O)N[C@@H](C)C(=O)N[C@@H](CCC(N)=O)C(=O)N[C@@H](CC(=O)O)C(=O)N[C@@H](Cc1ccccc1)C(=O)N[C@H](C(=O)N[C@@H](CCC(N)=O)C(=O)N[C@@H](Cc1c[nH]c2ccccc12)C(=O)N[C@@H](CC(C)C)C(=O)N[C@@H](CC(C)C)C(=O)N[C@@H](CC(N)=O)C(=O)N[C@H](C(=O)NCC(=O)NCC(=O)N1CCC[C@H]1C(=O)N[C@@H](CO)C(=O)N[C@@H](CO)C(=O)NCC(=O)N[C@@H](C)C(=O)N1CCC[C@H]1C(=O)N1CCC[C@H]1C(=O)N1CCC[C@H]1C(=O)N[C@@H](CO)C(N)=O)[C@@H](C)O)C(C)C)C(=O)O |  |  | Sprague-Dawley rat, female | subcutaneous, 20 µg/kg once daily, 14 days | urea | 3.87 ± 0.73 mmol/L
CC[C@H](C)[C@H](NC(=O)[C@H](CCCN)NC(=O)[C@H](CC(=O)O)NC(=O)[C@H](CC(C)C)NC(=O)C(C)(CC(C)C)NC(=O)[C@@H](NC(=O)[C@H](CO)NC(=O)[C@H](Cc1ccc(O)cc1)NC(=O)[C@H](CC(=O)O)NC(=O)[C@H](CO)NC(=O)[C@@H](NC(=O)[C@H](Cc1ccccc1)NC(=O)[C@@H](NC(=O)CNC(=O)[C@H](CCC(=O)O)NC(=O)C(C)(C)NC(=O)[C@@H](N)Cc1ccc(O)cc1)[C@@H](C)O)[C@@H](C)CC)[C@@H](C)CC)C(=O)N[C@@H](Cc1c[nH]cn1)C(=O)N[C@@H](CCC(N)=O)C(=O)NC(C)(C)C(=O)N[C@@H](CC(=O)O)C(=O)N[C@@H](Cc1ccccc1)C(=O)N[C@H](C(=O)N[C@@H](CCC(=O)O)C(=O)N[C@@H](Cc1ccc(O)cc1)C(=O)N[C@@H](CCCCNC(=O)COCCOCCNC(=O)COCCOCCNC(=O)CC[C@H](NC(=O)CCCCCCCCCCCCCCCCCCC(=O)O)C(=O)O)C(=O)N[C@@H](CC(C)C)C(=O)N[C@@H](CCC(=O)O)C(=O)NCC(=O)NCC(=O)N1CCC[C@H]1C(=O)N[C@@H](CO)C(=O)N[C@@H](CO)C(=O)NCC(=O)N[C@@H](C)C(=O)N1CCC[C@H]1C(=O)N1CCC[C@H]1C(=O)N1CCC[C@H]1C(=O)N[C@@H](CO)C(N)=O)C(C)C (some centres unmarked) | GLP1R (Homo sapiens, UniProt P43220) | cAMP accumulation, agonist | HEK293 | 9.95 µM | stimulation | 0.5 ± 0.3%
Cc1ccc(OCCN(C)C)cc1C(=O)N[C@H](C)c1cc(-c2cnn(C)c2)cc(-c2cnn(CCN3CCOCC3)c2)c1 | rep papain-like protease | protease activity, inhibitor, FlipGFP | SARS-CoV-2 |  | EC50 | 2 ± 0.4 µM
O=c1[nH]c(=O)c2ncn(C3OC(COP(=O)(O)OP(=O)(O)OP(=O)(O)O)C(O)C3O)c2[nH]1 (centres unmarked) | OPG122 |  |  |  | Ki | > 0.8 µM
O=C(CSc1c[nH]c2ccccc12)NCc1ccc(Cl)c(Cl)c1 | rep nsp12 with nsp14/nsp10 | RdRp reporter activity, inhibitor, Gaussia luciferase reporter | HEK293T | 24 h, added: nsp7, nsp8, nsp10, nsp14 | EC50 | 2.89 µM
Nc1nc(S)c2ncn(C3OC(COP(=O)(O)OP(=O)(O)OP(=O)(O)O)C(O)C3O)c2n1 (centres unmarked) | OPG122 |  |  |  | Ki | > 0.8 µM
COCn1cc(-c2cc(-c3cnn(C(F)F)c3)cc([C@@H](C)NC(=O)c3cc(OCCN(C)C)ccc3C)c2)cn1 | rep papain-like protease | protease activity, inhibitor, FlipGFP | SARS-CoV-2 |  | EC50 | 2.6 ± 0.2 µM

Some of these lines once more:
Structure (SMILES) | target or system | test | system | conditions | quantity | value
Nc1ncnc2c1ncn2C1OC(COP(=O)(O)OP(=O)(O)OP(=O)(O)O)C(O)C1F (centres unmarked) | OPG122 |  |  |  | Ki | > 0.8 µM
O=c1[nH]c(=O)c2ncn(C3OC(COP(=O)(O)OP(=O)(O)OP(=O)(O)O)C(O)C3O)c2[nH]1 (centres unmarked) | OPG122 |  |  |  | Ki | > 0.8 µM
